Assay results of several laboratories.
Compare with care: the assays were run in different laboratories. ± marks the error that the study gave.

SMILES	assay	test system	setting	quantity	result
CCOP(=O)(OCC)OCCCCOC(=O)CC1=C(C)C(=Cc2ccc([S+](C)[O-])cc2)c2ccc(F)cc21 (centres unmarked)	HPLC	mice, lung	inhalation, dose not given, 8 min exposure	Cmax	22.2 nmol/g tissue
CC[C@H](C)[C@H](NC(=O)[C@H](C)NC(=O)[C@H](CCCCN)NC(=O)[C@H](CC(C)C)NC(=O)[C@H](Cc1ccccc1)NC(=O)[C@@H](N)CC[Se]C)C(=O)N[C@@H](CCCCN)C(=O)N[C@@H](CCCCN)C(=O)N[C@@H](Cc1ccccc1)C(=O)NCC(=O)N[C@@H](CCCCN)C(=O)N[C@@H](CCC(=O)O)C(=O)N[C@@H](Cc1ccccc1)C(=O)N[C@@H](CCCCN)C(=O)N[C@@H](CCCCN)C(=O)N[C@H](C(=O)NCC(=O)N[C@@H](C)C(=O)N[C@@H](CCCCN)C(=O)N[C@@H](CC(C)C)C(=O)N[C@@H](CCCCN)C(=O)O)[C@@H](C)CC	item: selenium	BALB/c mice, serum	intraperitoneal, 70 mg/kg	Cmax	20 µg/mL
Cc1cc(Nc2nc(C[C@@]3(C(=O)O)CCN(Cc4cccc(Cl)c4F)[C@H](C)C3)cc(C)c2F)n[nH]1		BALB/c nude mice, female, NCI-H446 xenograft, tumour tissue	oral, 10 mg/kg single	Cmax	1510 ng/g
C[C@@](O)(C(F)F)[C@H](NC(=O)c1ccc(C#CC#CC2CC2)cc1)C(=O)NO		CD-1 mice, plasma	intravenous, 40 mg/kg	Cmax (extrapolated C0)	60.6 ± 5 µg/mL
O=C1CC(=O)N(c2ccccc2)c2cc(Cl)ccc2N1		C57BL/6 mice, whole blood	oral, 30 mg/kg	Cmax	11.5 µM
CC1=CC(C)(C)N=C2C=CC(=O)C=C12		mice, plasma	oral, 425 mg/kg	Cmax	2.15 µg/mL
CCCCCCCC(=O)SCC/C=C/[C@@H]1CC(=O)NCc2nc(cs2)C2=N[C@@](C)(CS2)C(=O)N[C@@H](C(C)C)C(=O)N1	item: thiol form	female NIH Swiss mice, whole blood	intravenous bolus, 5 mg/kg, two-compartment model	Cmax	4.8 µg/mL
C[C@H](CCC(=O)N[C@@H](CCCCNC(=O)C(F)(F)F)C(=O)O)[C@H]1CC[C@H]2[C@@H]3[C@H](O)C[C@@H]4C[C@H](O)CC[C@]4(C)[C@H]3C[C@H](O)[C@]12C		C57BL/6J mice, plasma	oral, 50 mg/kg	Cmax	24.8 ± 19.6 µM
CCC[C@@H]1O[C@@H]2C[C@H]3[C@@H]4C[C@H](F)C5=CC(=O)CC[C@]5(C)[C@@]4(F)[C@@H](O)C[C@]3(C)[C@]2(C(=O)CO)O1		CD1 mice, plasma	subcutaneous, 0.2 mg/kg	Cmax	0.074 µM
CCn1ccc(-c2cc(-c3cnn(C)c3)cc([C@@H](C)NC(=O)c3cc(OCCN(C)C)ccc3C)c2)n1		C57BL/6J mice, male, plasma	oral, 50 mg/kg	Cmax	4.54 µg/mL
CSCC[C@H](NC(=O)CNC(=O)[C@H](CC(=O)O)NC(=O)[C@@H](NC(=O)[C@@H](NC(=O)[C@@H](NC(=O)CNC(=O)[C@H](CCC(=O)O)NC(=O)[C@H](CCSC)NC(=O)[C@H](CC(=O)O)NC(=O)[C@H](C)NC(=O)[C@H](C)NC(=O)[C@@H](NC(=O)[C@H](CO)NC(=O)[C@@H](N)CC(C)C)[C@@H](C)O)C(C)C)C(C)C)[C@@H](C)O)C(=O)N[C@@H](C)C(=O)N[C@@H](CO)C(=O)NCC(=O)N[C@@H](CC(C)C)C(=O)N[C@@H](CC(=O)O)C(=O)N[C@@H](CCCCN)C(=O)N[C@@H](CC(=O)O)C(=O)N[C@@H](Cc1ccc(O)cc1)C(=O)N[C@@H](CC(C)C)C(=O)N[C@@H](CCCCN)C(=O)N1CCC[C@H]1C(=O)N[C@@H](CC(=O)O)C(=O)N[C@@H](CC(=O)O)C(=O)O		male CD-1 mice, serum	intravenous, 480 mg/kg	Cmax	2470 µg/mL

Excerpt of the above:
SMILES	assay	test system	setting	quantity	result
CCC[C@@H]1O[C@@H]2C[C@H]3[C@@H]4C[C@H](F)C5=CC(=O)CC[C@]5(C)[C@@]4(F)[C@@H](O)C[C@]3(C)[C@]2(C(=O)CO)O1		CD1 mice, plasma	subcutaneous, 0.2 mg/kg	Cmax	0.074 µM
CCn1ccc(-c2cc(-c3cnn(C)c3)cc([C@@H](C)NC(=O)c3cc(OCCN(C)C)ccc3C)c2)n1		C57BL/6J mice, male, plasma	oral, 50 mg/kg	Cmax	4.54 µg/mL
